Measurements from different studies.
Every numbered part comes from another study and shows a few of its results, in no order. Substitutions count along the parent as printed.
Sequence of UniProt P29597 (whole entry, looked up): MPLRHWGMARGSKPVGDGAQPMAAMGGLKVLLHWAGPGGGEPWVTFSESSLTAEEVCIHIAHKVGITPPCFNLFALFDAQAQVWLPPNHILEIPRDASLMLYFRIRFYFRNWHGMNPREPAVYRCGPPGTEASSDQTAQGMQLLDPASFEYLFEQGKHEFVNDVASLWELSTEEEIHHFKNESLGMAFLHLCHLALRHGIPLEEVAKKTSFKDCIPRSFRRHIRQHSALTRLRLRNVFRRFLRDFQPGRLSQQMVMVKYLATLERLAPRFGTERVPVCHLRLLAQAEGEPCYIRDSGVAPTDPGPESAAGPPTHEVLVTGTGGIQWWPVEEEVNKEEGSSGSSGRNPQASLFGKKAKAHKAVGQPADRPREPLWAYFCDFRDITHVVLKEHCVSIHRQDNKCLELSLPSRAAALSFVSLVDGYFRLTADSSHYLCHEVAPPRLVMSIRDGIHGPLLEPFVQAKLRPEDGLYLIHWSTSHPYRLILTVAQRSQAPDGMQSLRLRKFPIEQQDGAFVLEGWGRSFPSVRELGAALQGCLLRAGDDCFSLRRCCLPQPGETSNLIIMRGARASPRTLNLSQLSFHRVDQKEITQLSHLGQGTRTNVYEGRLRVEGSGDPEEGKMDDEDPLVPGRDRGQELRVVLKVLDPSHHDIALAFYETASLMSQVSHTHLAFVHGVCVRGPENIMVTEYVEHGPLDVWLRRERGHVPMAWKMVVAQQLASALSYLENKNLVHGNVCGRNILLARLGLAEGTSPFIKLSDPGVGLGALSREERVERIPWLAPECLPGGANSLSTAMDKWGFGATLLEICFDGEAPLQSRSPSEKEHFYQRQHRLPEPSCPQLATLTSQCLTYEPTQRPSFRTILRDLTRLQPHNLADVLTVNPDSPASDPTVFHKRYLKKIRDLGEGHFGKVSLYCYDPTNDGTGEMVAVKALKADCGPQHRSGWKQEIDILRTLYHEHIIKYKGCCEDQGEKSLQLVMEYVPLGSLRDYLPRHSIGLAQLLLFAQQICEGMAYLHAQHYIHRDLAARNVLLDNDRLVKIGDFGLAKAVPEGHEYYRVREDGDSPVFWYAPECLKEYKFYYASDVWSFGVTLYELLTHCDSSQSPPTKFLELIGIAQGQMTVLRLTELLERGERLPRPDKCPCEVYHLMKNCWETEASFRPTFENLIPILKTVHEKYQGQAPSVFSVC

Series 1
Target: Fragile X messenger ribonucleoprotein 1, C-terminal low-complexity region (Fmr1, Mus musculus, UniProt P35922)
Method: RNA Bind-n-Seq
Form: RNA
Matrix: in vitro
Concentration: 200 nM
Setting: whole 134-nt RNA, ends assumed
Together with: 150 mM LiCl
Baseline: input library
Direction: higher = stronger binding
All molecules: 7-deaza-guanosine replaces G
`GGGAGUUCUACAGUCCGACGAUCACCAUGCACGUGGGCAUCUUUGGGAAGUGGGGCAAGGGGGGGAUAGGGAGGGGGGUAACACUUUGGGAACAGGUGGUCCCAGGUCGUUUCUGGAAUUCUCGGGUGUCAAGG` has a log2 enrichment of 1.27.
With `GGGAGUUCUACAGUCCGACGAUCCUCAAGUCCUGUGCUACACAUCGUAUGUACCGAAUCGGGUUUGGGUGGGUGGGAAAGUAUUAUGUUACGCCGUUCGGAUCUGCACUUCCAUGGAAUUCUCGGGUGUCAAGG` the log2 enrichment was -0.683.
With `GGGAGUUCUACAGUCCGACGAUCGUCCUGUGCUACACAUCGUAUGUACCGAAUCGGUUUUUUGGUUUUUUGGUUUUUUGGGGAAAGUAUUAUGUUACGCCGUUCGGAUCUGCAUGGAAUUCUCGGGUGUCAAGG` the log2 enrichment was -1.52.
The log2 enrichment of `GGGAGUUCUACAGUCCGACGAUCCUCAAGUCCUGUGCUACACAUCGUAUGUACCGAAUCGGAAAAAGGAGGUUUGGAAAGUAUUAUGUUACGCCGUUCGGAUCUGCACUUCCAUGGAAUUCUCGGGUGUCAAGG` is reported as -0.718.
`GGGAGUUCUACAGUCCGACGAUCUCAAGUCCUGUGCUACACAUCGUAUGUACCGAAUCGGGCCCGGCCCGGGGCCCGGAAAGUAUUAUGUUACGCCGUUCGGAUCUGCACUUCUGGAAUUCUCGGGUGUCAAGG` has a log2 enrichment of -1.31.
For `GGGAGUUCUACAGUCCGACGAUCAAGUCCUGUGCUACACAUCGUAUGUACCGAAUCGGGGUUUGGGGUUUGGGUUUGGGGAAAGUAUUAUGUUACGCCGUUCGGAUCUGCACUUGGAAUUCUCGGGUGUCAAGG`, the log2 enrichment was -0.678.
The log2 enrichment of `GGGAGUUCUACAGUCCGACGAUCCACAGACAACACGCACCCACACAGACACAGAGGGAAGGGGUUGGGAUGGGGACAGGGUGCACAGCAGGGCAAAGUAGGACCCCAGCCCCUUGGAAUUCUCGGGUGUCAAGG` is reported as -0.0199.
With `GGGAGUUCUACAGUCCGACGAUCGUCCUGUGCUACACAUCGUAUGUACCGAAUCAAACCCCCCCAAACCCAAACCCCCAAAAAAGUAUUAUGUUACGCCGUUCGGAUCUGCACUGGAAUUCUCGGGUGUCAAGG` the log2 enrichment was 0.704.

Series 2
Target: Interferon regulatory factor 7, full length, phosphomimetic (IRF7, Homo sapiens, UniProt Q92985, residues 1-503, S471D/S472D/S475D/S476D/S477D/S483D/S484D/S487D)
Sequence of UniProt Q92985 (whole entry, unmodified, looked up): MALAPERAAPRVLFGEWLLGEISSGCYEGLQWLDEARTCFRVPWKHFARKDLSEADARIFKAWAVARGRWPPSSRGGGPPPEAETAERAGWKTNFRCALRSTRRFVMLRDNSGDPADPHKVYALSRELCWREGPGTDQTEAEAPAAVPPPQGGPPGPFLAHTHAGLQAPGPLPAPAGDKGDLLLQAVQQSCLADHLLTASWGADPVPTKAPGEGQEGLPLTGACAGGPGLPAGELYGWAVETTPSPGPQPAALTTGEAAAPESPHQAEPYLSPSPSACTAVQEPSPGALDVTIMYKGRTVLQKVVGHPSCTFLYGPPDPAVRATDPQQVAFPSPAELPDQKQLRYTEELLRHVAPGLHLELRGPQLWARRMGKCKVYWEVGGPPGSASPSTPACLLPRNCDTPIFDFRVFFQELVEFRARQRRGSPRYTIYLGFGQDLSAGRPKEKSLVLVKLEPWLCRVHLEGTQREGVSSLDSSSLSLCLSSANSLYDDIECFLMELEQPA
Method: protein-binding microarray
Form: double-stranded DNA, one strand shown
Matrix: in vitro
Concentration: 2200 nM top
Setting: 60-bp whole probe
Together with: salmon DNA 0.4 mg/ml
Baseline: random background probes
Direction: higher = stronger binding
All sequences stand within: GCCTAGCAC … GTCTTGATTCGCTTGACGCTGCTG
For `TTAGATTTCGGGCATCGATTAGTGCTA`, “fitted relative affinity” read 0.597 z-score.
Under “fitted relative affinity”, `GACGGTATCCTTCTCATGACGTGCTAG` is recorded as 1.16 z-score.
`CCACTTTTATTTTCAGTATTGTGCTAG` — result for “fitted relative affinity”: 3.99 z-score.
For `GACGAACTCAGTATCGAGACGTGCTAG`, “fitted relative affinity” read -0.168 z-score.
For `TCATGGCTCCCTATAAAACTGTGCTAG`, “fitted relative affinity” read 0.338 z-score.
`TTAGGTTTCGGGACTGAGTTAGTGCTA`: “fitted relative affinity” 2.55 z-score.
Under “fitted relative affinity”, `GACGATCTCAGTATCGAGTCGTGCTAG` is recorded as 0.593 z-score.
`GACGGACTGCTTCTCCTGAAGTGCTAG`: “fitted relative affinity” 0.371 z-score.

Series 3
Target: JUN, bZIP domain (human)
Method: DHFR protein complementation
Matrix: yeast
Setting: single substitutions, most at no-binding floor
Baseline: wild-type JUN-FOS pair
Direction: higher = stronger binding
Starting sequence: JUN, bZIP domain (human); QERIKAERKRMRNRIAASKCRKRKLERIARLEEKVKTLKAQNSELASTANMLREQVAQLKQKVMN; partner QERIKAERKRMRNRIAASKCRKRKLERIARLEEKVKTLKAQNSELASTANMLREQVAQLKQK
With `A46E` the binding fitness was -0.108 natural log.
The binding fitness of `K39R` is reported as -0.186 natural log.
`A29W` gave a binding fitness of -0.499 natural log.
`A29L` has a binding fitness of -0.525 natural log.
`Q58H` has a binding fitness of -0.262 natural log.
`L45M` has a binding fitness of -0.633 natural log.
The binding fitness of `R30F` is reported as -0.21 natural log.
The binding fitness of `V56C` is reported as -0.716 natural log.

Other studies, line by line
`CN(C)CC#Cc1ccc(OCCCc2sc(N3CCc4cccc(C(=O)Nc5nc6ccccc6s5)c4C3)nc2C(=O)O)c(F)c1` has a remaining binding of 85% (Non-receptor tyrosine-protein kinase TYK2, JH1 (TYK2, Homo sapiens, UniProt P29597); cell-free assay, competition with immobilised ligand; 1 µM).

A few entries again (series 2):
Under “fitted relative affinity”, `GACGATCTCAGTATCGAGTCGTGCTAG` is recorded as 0.593 z-score.
`GACGGACTGCTTCTCCTGAAGTGCTAG`: “fitted relative affinity” 0.371 z-score.
